Results of several laboratories.
Parts stem from different laboratories: compare values within a part only.

Block 1
Target: Sal-like protein 4, full length isoform A (SALL4, Homo sapiens, UniProt Q9UJQ4, residues 1-1053)
Chain of UniProt Q9UJQ4 (whole entry, looked up): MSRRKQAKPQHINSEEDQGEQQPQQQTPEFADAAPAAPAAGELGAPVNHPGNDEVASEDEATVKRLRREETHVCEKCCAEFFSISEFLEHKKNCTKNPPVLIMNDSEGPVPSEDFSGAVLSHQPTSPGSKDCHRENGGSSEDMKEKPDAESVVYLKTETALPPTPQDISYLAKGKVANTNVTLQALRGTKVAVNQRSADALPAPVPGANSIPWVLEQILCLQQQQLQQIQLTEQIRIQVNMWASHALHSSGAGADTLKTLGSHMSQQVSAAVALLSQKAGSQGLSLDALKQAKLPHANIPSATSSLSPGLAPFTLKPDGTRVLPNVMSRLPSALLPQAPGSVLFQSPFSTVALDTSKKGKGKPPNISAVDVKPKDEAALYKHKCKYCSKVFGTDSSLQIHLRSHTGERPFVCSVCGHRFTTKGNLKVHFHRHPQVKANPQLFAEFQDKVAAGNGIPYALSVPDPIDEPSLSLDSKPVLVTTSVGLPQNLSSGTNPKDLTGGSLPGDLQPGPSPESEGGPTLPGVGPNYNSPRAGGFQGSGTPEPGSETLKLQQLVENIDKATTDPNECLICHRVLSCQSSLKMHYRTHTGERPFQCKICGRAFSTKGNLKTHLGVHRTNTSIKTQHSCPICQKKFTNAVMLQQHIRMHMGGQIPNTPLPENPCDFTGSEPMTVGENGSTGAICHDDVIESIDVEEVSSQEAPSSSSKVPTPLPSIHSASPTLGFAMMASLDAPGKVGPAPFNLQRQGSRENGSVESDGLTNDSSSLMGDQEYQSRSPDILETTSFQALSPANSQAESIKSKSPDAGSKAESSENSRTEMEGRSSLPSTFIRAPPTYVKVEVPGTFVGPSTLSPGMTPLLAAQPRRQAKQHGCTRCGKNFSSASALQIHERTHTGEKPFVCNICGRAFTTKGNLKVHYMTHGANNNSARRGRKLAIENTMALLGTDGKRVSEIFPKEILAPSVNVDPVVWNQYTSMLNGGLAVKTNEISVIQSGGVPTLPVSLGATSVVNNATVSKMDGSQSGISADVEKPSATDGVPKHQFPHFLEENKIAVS
Method: universal PBM
Form: double-stranded DNA, one strand shown
Medium: in vitro
Concentration: 600 nM
Setting: 8-mer, flanks averaged, mean of replicates
Direction: higher = stronger binding
Sequence	E-score
AGGGTTAG	-0.214
ACTACTGA	0.00674
ATAGTTCA	0.225

Block 2
Target: Interferon regulatory factor 7, full length, phosphomimetic (IRF7, Homo sapiens, UniProt Q92985, residues 1-503, S101K/S471D/S472D/S475D/S476D/S477D/S483D/S484D/S487D)
Method: protein-binding microarray
Form: double-stranded DNA, one strand shown
Medium: in vitro
Concentration: 250 nM
Setting: 60-bp whole probe
With: salmon DNA 0.4 mg/ml
Relative to: random background probes
Direction: higher = stronger binding
Target sequence (chain): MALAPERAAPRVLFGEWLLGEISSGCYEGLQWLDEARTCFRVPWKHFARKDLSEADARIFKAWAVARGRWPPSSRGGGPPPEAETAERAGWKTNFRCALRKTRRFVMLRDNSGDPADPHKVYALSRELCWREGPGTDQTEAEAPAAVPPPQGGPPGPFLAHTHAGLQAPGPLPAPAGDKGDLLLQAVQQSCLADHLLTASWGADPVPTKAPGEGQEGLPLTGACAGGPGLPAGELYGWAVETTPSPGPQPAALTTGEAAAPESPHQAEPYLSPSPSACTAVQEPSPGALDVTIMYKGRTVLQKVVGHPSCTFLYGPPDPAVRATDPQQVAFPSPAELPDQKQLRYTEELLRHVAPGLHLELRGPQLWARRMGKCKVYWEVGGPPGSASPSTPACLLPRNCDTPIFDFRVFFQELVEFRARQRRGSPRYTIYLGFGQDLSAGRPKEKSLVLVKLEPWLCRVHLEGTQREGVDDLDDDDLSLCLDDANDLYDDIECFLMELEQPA
Sequence	log fluorescence [z-score]
GCCTAGCACTCATCTCTAACCTCTCTAACTGTGCTAGTCTTGATTCGCTTGACGCTGCTG	0.614
GCCTAGCACCTGCACTCCAGTCTGGGAGAGTGCTAGGTCTTGATTCGCTTGACGCTGCTG	-0.392
GCCTAGCACCACGGTTTCGACTATCGGGACGTGCTAGTCTTGATTCGCTTGACGCTGCTG	6.07

Block 3
Target: Histone acetyltransferase KAT6A, winged helix 2, GST fusion (KAT6A, Homo sapiens, UniProt Q92794, residues 85-181)
Method: protein binding microarray
Form: double-stranded DNA, one strand shown
Medium: in vitro
Concentration: not given
Setting: 8-mer, flanks averaged, mean of 2 arrays, mostly near background
Relative to: not given
Direction: higher = stronger binding
Residues (chain): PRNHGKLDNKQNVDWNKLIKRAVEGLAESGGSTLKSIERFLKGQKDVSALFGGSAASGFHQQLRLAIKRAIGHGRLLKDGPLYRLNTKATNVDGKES
Sequence	E-score
CCTAATGC	-0.116
AGTCATAT	-0.0798
GGGGTCCA	-0.0526
ACGGTGAC	-0.182

Other studies, line by line
Molecule	target	test	test system	conditions	scale	endpoint	value
PhoQ, residues 284 288 289 292 302 303 SSCLAV	PhoP, residues 12 14 15 18 19 QYFSL (Escherichia coli, UniProt P23836)	Sort-seq, item: YFP reporter	E. coli	PhoQ-PhoP variant library, with: 10 µM Mg2+	relative to: high Mg2+ state, higher = stronger signaling	fold induction	23.3

Excerpt of the above (block 3):
Sequence	E-score
GGGGTCCA	-0.0526
ACGGTGAC	-0.182
